Measurements gathered from unrelated publications.
± marks the error that the study gave.
SCRIB PDZ3 domain: Protein scribble homolog, PDZ3 domain (SCRIB, Homo sapiens, UniProt Q14160)
Sequence of UniProt Q14160 (whole entry, looked up): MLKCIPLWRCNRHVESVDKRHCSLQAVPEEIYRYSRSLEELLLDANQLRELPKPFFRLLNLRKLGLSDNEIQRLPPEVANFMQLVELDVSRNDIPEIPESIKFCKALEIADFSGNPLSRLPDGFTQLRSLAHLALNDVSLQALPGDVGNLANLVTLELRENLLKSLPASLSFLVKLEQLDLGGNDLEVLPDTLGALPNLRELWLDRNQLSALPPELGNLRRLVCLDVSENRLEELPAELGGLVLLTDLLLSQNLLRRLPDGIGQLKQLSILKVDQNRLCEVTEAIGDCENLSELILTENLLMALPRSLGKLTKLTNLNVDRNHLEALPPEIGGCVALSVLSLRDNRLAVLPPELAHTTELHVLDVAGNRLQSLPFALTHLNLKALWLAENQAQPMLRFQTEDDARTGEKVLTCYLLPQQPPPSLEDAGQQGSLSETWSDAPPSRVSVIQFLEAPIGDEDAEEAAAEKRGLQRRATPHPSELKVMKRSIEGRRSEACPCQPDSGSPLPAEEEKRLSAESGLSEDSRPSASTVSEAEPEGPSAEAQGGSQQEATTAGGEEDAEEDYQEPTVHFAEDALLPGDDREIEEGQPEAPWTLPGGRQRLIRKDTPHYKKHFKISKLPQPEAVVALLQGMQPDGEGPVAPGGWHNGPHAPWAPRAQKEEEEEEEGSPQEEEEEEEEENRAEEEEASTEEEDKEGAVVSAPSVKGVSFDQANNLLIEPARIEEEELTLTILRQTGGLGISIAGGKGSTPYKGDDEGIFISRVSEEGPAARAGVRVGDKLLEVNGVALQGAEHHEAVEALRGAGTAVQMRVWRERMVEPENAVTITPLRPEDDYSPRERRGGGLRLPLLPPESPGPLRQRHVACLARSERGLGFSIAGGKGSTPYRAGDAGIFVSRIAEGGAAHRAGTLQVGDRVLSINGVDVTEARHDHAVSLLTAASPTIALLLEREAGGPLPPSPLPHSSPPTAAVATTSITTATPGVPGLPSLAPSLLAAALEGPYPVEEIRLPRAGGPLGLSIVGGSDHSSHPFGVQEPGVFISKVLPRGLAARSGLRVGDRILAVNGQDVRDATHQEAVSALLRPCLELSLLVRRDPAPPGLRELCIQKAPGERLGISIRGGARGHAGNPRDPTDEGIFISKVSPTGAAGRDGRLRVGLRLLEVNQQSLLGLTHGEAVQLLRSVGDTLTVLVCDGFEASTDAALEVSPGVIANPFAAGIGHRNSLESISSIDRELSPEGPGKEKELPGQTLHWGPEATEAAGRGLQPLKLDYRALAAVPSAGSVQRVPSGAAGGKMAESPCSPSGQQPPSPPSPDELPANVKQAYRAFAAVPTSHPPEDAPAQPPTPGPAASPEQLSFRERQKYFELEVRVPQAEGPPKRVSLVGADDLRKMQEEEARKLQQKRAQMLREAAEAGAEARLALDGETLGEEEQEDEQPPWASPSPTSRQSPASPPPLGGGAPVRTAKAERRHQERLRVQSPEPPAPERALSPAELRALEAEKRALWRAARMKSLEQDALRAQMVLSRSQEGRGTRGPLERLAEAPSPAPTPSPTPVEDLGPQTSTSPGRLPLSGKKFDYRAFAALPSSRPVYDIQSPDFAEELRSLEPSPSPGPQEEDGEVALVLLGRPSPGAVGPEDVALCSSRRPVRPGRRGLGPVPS
4'-phosphopantetheinyl transferase PptT: 4'-phosphopantetheinyl transferase PptT (Mycobacterium tuberculosis, UniProt O33336)
Sequence of UniProt O33336 (whole entry, looked up): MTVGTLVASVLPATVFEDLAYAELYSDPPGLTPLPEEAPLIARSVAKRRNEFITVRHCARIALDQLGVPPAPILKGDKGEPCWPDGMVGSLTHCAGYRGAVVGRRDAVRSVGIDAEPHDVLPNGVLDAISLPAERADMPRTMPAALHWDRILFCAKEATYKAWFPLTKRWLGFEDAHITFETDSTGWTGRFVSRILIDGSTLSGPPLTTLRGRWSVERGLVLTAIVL
Sequence of UniProt P21964 (whole entry, looked up): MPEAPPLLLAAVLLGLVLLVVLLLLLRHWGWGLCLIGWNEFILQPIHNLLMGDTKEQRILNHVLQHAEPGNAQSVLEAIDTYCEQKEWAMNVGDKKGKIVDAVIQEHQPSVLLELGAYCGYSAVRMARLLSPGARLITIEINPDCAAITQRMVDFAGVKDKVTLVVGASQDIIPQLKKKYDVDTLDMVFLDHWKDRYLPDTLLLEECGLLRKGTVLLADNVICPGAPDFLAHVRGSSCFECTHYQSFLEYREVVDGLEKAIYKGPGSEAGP
Sequence of UniProt Q9NP31 (whole entry, looked up): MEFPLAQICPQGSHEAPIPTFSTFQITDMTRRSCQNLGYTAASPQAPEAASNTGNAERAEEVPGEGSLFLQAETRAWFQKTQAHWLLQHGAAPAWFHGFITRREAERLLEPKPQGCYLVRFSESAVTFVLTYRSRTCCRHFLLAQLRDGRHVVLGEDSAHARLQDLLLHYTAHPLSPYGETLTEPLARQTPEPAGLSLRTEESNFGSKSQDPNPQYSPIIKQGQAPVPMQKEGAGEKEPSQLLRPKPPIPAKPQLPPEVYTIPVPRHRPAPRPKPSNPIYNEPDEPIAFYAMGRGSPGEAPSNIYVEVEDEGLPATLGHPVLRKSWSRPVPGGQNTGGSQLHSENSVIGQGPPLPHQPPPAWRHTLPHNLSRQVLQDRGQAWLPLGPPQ
Sequence of UniProt Q96DB2 (whole entry, looked up): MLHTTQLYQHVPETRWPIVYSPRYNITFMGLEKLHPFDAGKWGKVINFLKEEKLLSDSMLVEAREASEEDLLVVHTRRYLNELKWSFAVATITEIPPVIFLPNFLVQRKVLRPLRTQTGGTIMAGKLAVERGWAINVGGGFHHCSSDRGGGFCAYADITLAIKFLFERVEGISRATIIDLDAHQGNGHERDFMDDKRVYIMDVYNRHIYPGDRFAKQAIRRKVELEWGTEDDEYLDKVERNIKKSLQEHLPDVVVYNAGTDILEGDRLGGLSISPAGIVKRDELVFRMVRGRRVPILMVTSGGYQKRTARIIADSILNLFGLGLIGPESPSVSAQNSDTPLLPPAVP

The Kd of `CC[C@H](C)[C@H](N)C(=O)N[C@@H](CC(C)C)C(=O)N[C@@H](CCCNC(=N)N)C(=O)N[C@@H](CCCCN)C(=O)N[C@@H](CO)C(=O)N[C@H](C(=O)N[C@H](C(=O)N[C@H](C(=O)N[C@H](C(=O)N[C@H](C(=O)O)C(C)C)[C@@H](C)O)[C@@H](C)O)[C@@H](C)O)[C@@H](C)O` is reported as 40.1 µM (SCRIB PDZ3 domain; binding, fluorescence polarization; solution; Scribble PDZ3 domain).
For `COc1cc(Nc2ncc(F)c(Nc3ccc4c(n3)NC(=O)C(C)(C)O4)n2)cc(OC)c1OC`, the IC50 was over 10 µM (COMT (Homo sapiens, UniProt P21964); enzyme activity, inhibitor).
For `CSCC[C@H](NC(=O)[C@@H](N)C(C)C)C(=O)N[C@@H](CCCNC(=N)N)C(=O)N[C@@H](CC(C)C)C(=O)N[C@@H](CCC(N)=O)C(=O)N[C@@H](CO)C(=O)N[C@@H](CCC(=O)O)C(=O)N[C@H](C(=O)N[C@@H](CO)C(=O)N[C@H](C(=O)O)C(C)C)[C@@H](C)O`, the Kd was 8.8 µM (SCRIB PDZ3 domain; binding, fluorescence polarization; solution; Scribble PDZ3 domain).
The Ki of `O=C(O)CNCP(=O)(O)O` is reported as 0.06 ± 0.007 µM (EPSP synthase (Zea mays, UniProt A0A1D6NVZ6)).
`CCc1cccc(CC)c1NC(=O)NC(=N)NCCOC` gave an IC50 of 98.5 µM (4'-phosphopantetheinyl transferase PptT; inhibitor).
`Cc1c(OS(=O)(=O)Oc2ccc(Oc3ccccc3)cc2)cccc1C(=O)NO` gave an IC50 of 0.269 µM (HDAC11 (Homo sapiens, UniProt Q96DB2)).
`CC[C@H](C)[C@H](NC(=O)[C@H](CC(=O)O)NC(=O)[C@H](C)NC(=O)[C@H](Cc1ccc(O)cc1)NC(=O)[C@H](CCCCN)NC(=O)c1ccc2c(c1)C(=O)OC21c2ccc(N(C)C)cc2Oc2cc(N(C)C)ccc21)C(=O)N[C@@H](CCC(=O)O)C(=O)N[C@@H](CO)C(=O)N[C@@H](CO)C(=O)N[C@@H](CC(N)=O)C(=O)N[C@@H](Cc1ccc(OP(=O)(O)O)cc1)C(=O)N[C@@H](CCSC)C(=O)N[C@@H](C)C(=O)N1CCC[C@H]1C(=O)N[C@@H](Cc1ccc(O)cc1)C(=O)N[C@@H](CC(=O)O)C(=O)N[C@@H](CC(N)=O)C(=O)N[C@@H](Cc1ccc(O)cc1)C(=O)N[C@@H](CC(=O)O)C(=O)O` has a Kd of 0.388 µM (SH2 domain-containing protein 2A, SH2 domain (SH2D2A, Homo sapiens, UniProt Q9NP31)).
`CCc1cccc(CC)c1NC(=O)NC(=N)NCC(C)C` gave an IC50 of over 100 µM (4'-phosphopantetheinyl transferase PptT; inhibitor).
With `CC[C@H](C)[C@H](NC(=O)[C@H](CCCNC(=N)N)NC(=O)[C@@H](NC(=O)[C@H](CO)NC(=O)[C@H](CC(C)C)NC(=O)[C@H](C)NC(=O)[C@@H](N)CO)C(C)C)C(=O)N[C@@H](CO)C(=O)N[C@@H](CC(N)=O)C(=O)N[C@H](C(=O)O)C(C)C` the Kd was 13.2 µM (SCRIB PDZ3 domain; binding, fluorescence polarization; solution; Scribble PDZ3 domain).
With `CCNC(=N)NC(=O)Nc1ccc(Cl)c(C(F)(F)F)c1` the IC50 was over 100 µM (4'-phosphopantetheinyl transferase PptT; inhibitor).
With `CSCC[C@H](NC(=O)[C@H](CC(C)C)NC(=O)[C@@H](NC(=O)[C@H](C)NC(=O)[C@H](CCSC)NC(=O)[C@H](CCCCN)NC(=O)[C@H](CC(N)=O)NC(=O)[C@@H]1CCCN1C(=O)[C@H](CC(N)=O)NC(=O)[C@@H](N)CC(C)C)[C@@H](C)O)C(=O)O` the Kd was 59.5 µM (SCRIB PDZ3 domain; binding, fluorescence polarization; solution; Scribble PDZ3 domain).
For `CCCCCCCCNC(=N)NC(=O)Nc1c(CC)cccc1CC`, the IC50 was over 100 µM (4'-phosphopantetheinyl transferase PptT; inhibitor).
For `CC[C@H](C)[C@H](NC(=O)[C@H](CCC(N)=O)NC(=O)[C@@H](NC(=O)[C@@H](NC(=O)[C@H](Cc1c[nH]cn1)NC(=O)[C@H](CCC(N)=O)NC(=O)CNC(=O)[C@@H]1CCCN1C(=O)[C@H](C)NC(=O)[C@@H]1CCCN1)[C@@H](C)O)[C@@H](C)O)C(=O)O`, the Kd was 52.2 µM (SCRIB PDZ3 domain; binding, fluorescence polarization; solution; Scribble PDZ3 domain).
With `CCNC(=NC(=O)OC(C)(C)C)NC(=O)Nc1c(CC)cc(C(=O)NC)cc1CC` the IC50 was over 100 µM (4'-phosphopantetheinyl transferase PptT; inhibitor).
With `C[C@H]1CN(c2n[nH]c3nc(N[C@H]4CC[C@H](NS(=O)(=O)CCC(F)(F)F)CC4)ncc23)CCO1` the IC50 was at least 20 µM (ATP1A1 (Homo sapiens, UniProt P05023); biochemical).

A few entries again:
`CC[C@H](C)[C@H](NC(=O)[C@H](CC(=O)O)NC(=O)[C@H](C)NC(=O)[C@H](Cc1ccc(O)cc1)NC(=O)[C@H](CCCCN)NC(=O)c1ccc2c(c1)C(=O)OC21c2ccc(N(C)C)cc2Oc2cc(N(C)C)ccc21)C(=O)N[C@@H](CCC(=O)O)C(=O)N[C@@H](CO)C(=O)N[C@@H](CO)C(=O)N[C@@H](CC(N)=O)C(=O)N[C@@H](Cc1ccc(OP(=O)(O)O)cc1)C(=O)N[C@@H](CCSC)C(=O)N[C@@H](C)C(=O)N1CCC[C@H]1C(=O)N[C@@H](Cc1ccc(O)cc1)C(=O)N[C@@H](CC(=O)O)C(=O)N[C@@H](CC(N)=O)C(=O)N[C@@H](Cc1ccc(O)cc1)C(=O)N[C@@H](CC(=O)O)C(=O)O` has a Kd of 0.388 µM (SH2 domain-containing protein 2A, SH2 domain (SH2D2A, Homo sapiens, UniProt Q9NP31)).
